Published values pooled from the literature.
Each line is one published result; not all experiments were run side by side. Several values in a cell are separate wells, animals, samples, runs or records. Numbers after ± are the reported error.

Compound	tested on	assay	test system	setting	scale	endpoint	value
CCC(=CCc1c(O)cc2c(c1O)C(=O)CC(c1ccccc1O)O2)CC (stereo not drawn)	HeLa	cell growth or viability, MTT	–	60 µM, 48 h	–	inhibition	74.8%
CCNc1cc2c(cc1C)C1(c3cc(C)c(NCC)cc3O2)c2ccccc2C(=O)N1N=Cc1c[c-]c(-c2ccccn2)cc1.Cc1c(C)c(-c2ccc(-c3ccccc3)cc2)[c-](C)c1C.[Cl-].[Ir+3]	A549	PI flow cytometry	–	1 x IC50, 24 h	–	G0/G1 phase cells	50.78 ± 0.29%
COc1ccc2c(c1)C(n1nnc3ccccc31)C1=C(CCCC1=O)O2 (stereo not drawn)	3T3-L1 mature adipocytes	lipolysis, Oil Red O staining	–	IC20	–	mean lipid content	0.675 OD492
CC(=O)N1C[C@H](O)C[C@H]1C(=O)N[C@@H](CC(C)C)C(=O)N[C@@H](C)C(=O)N[C@@H](CC(=O)O)C(=O)COC(=O)c1c(C)cccc1C	THP-1 cells, LPS-primed	pyroptosis, LDH release	–	25 µM, LPS 1 µg/mL, 4 h, together with: nigericin 5 µM, 2 h	–	cell lysis	85% and 91.6%
CCC(=CCc1c(O)cc2c(c1O)C(=O)CC(c1cccc(O)c1)O2)CC (stereo not drawn)	HeLa	cell growth or viability, MTT	–	100 µM, 48 h	–	inhibition	96.6%
[BH3-][P+]1(c2ccccc2)CCCCC1	HaCaT	annexin V/PI flow cytometry	–	IC50, 72 h	–	necrotic cells	0.05%
CC(C)c1ccc(N(C)c2ccc3c(c2)OCC[C@H]3CNc2cnccc2C(=O)O)cc1	A101D	cell growth or viability, ATP luminescence	–	7 days	–	IC50	11 nM
C=CC(=O)N1[C@H](c2ccc3c(c2)OCO3)c2[nH]c3ccccc3c2C[C@H]1C(=O)N1CCOCC1	22Rv1	ATAC-seq	–	concentration not given, FOXA1-binding sites, log2FC 1	–	increased accessible sites	542 sites
C#CCCCC(F)/C=C/C(=O)NC1(c2ccc(-c3nc4ccn5c(=O)[nH]nc5c4cc3-c3ccccc3)cc2)CCC1 (stereo not drawn)	T47D MK-2206-resistant	cell viability	–	72 h	reference: EC50 resistant over wild-type T47D	resistance fold	1.6
O=c1cc(NCc2ccco2)c2ccccc2o1	COS-7 (untransfected)	–	–	500 µM, unit not given	reference: 3 µM ionomycin	calcium mobilisation signal	1.66 ± 1.06
O=C(NCc1cccc(Cl)c1)c1ccc(C2CCCCC2)cc1	–	liver microsome stability	cynomolgus liver microsomes	1 µM	–	hepatic clearance	37 mL/min/kg
CC1(C)C[C@@H](Nc2cccc(-c3sc(C(=O)O)c(OCC(=O)O)c3Cl)c2)CCN1S(=O)(=O)Cc1cccc(NC(=O)CN2CCC(c3ccc4c(c3)oc(=O)n4C3CCC(=O)NC3=O)CC2)c1 (stereo partly drawn)	B16-F10	HTRF, item: phospho-STAT1 Tyr701	–	0.37 µM, together with: IFN-γ	reference: min-max normalised	pSTAT1 level	66.2% and 68.9% and 59.9% and 61.8% and 65.1% and 67.8%
N#C[C@@H]1CC(F)(F)CN1C(=O)CNC(=O)c1ccnc2ccc(OCCCN3CCN(C(=O)CCc4ccc5c(c4)CN4CCN(Cc6cc(CCC(=O)O)ccc6O)CC(=O)[O][Al-]([18F])([O]C(=O)C4)[O]5)CC3)cc12 (stereo partly drawn)	HT1080 cells expressing human FAP	–	–	30 min, 37 °C	–	internalized fraction	86.6 ± 1.7%
O=C(C[Se]C(=O)c1ccc2ccccc2c1)Nc1cccc(C(F)(F)F)c1	NCI60 NSCLC subpanel mean	cell growth	–	–	–	TGI	3320 nM
CCC(=CCc1c(O)cc2c(c1O)C(=O)CC(c1cccc(OC)c1O)O2)CC (stereo not drawn)	HeLa	cell growth or viability, MTT	–	6.25 µM, 48 h	–	inhibition	16.3%
COC1CCN(C(=O)/C=C/c2nn(Cc3cccc(C(F)(F)F)c3)c3nc(N4CCOCC4)ncc23)CC1	OE33	cell growth or viability, resazurin	–	5 days	–	EC50	> 30000 nM
C[C@@H]1CC[C@@H]([C@@](C)(O)Cn2ccnc2)[C@H](OCc2ccccc2)C1	HeLa	cell growth or viability, MTT	–	30 µM, 72 h	–	inhibition	70.8%
O=S(=O)(Nc1ccc(OC(F)(F)F)cc1)N1CCCC(C2c3ccc(F)cc3CCc3cc(F)ccc32)C1 (stereo not drawn)	D425	immunoblot, item: CIP2A	–	concentration not given	–	protein level	decreased
CC12CCCC(NS(=O)(=O)C3CCN(Cc4ccccc4)C3)(C1)C1CC(C)(C)C1CC2 (stereo not drawn)	HT-29	cell growth or viability, CCK-8	–	10 µM	–	inhibition	55.2%
Cc1ccncc1.[Cl-].[Cl-].[Ru+2].c1cc(-c2ccc3cccnc3n2)nc(-c2ccc3cccnc3n2)c1.c1ccc2cc3nc4c5cccnc5c5ncccc5c4nc3cc2c1	SK-MEL-28	–	–	light 633 nm	reference: dark EC50 over light EC50	phototherapeutic index	153
Cc1cc(Cl)cc(-c2ccnc3cc(CN4C(=O)C5C(C4=O)C5(C)C)sc23)c1C[C@@H]1CNCCO1 (stereo partly drawn)	CHP-212 resistant cells (pooled)	annexin V-PI flow cytometry	–	0.1 µM, 48 h	–	viable cells (annexin V-/PI-)	91.2% and 79.6% and 84.4%
N#C[C@@H]1CCCN1C(=O)CNC(=O)c1ccnc2ccc(OCCCN3CCN(C(=O)CCc4ccc(O)c(CN5CCN6CC(=O)[O][Al-]([18F])([O]C(=O)C5)[O]c5ccc(CCC(=O)N7CCN(CCCOc8ccc9nccc(C(=O)NCC(=O)N%10CCC[C@H]%10C#N)c9c8)CC7)cc5C6)c4)CC3)cc12 (stereo partly drawn)	HT1080 cells expressing human FAP	–	–	60 min, 37 °C	–	internalized fraction	70.5 ± 2.3%
CCC(=CCc1c(O)cc2c(c1O)C(=O)CC(c1cccc(O)c1OC)O2)CC (stereo not drawn)	HeLa	cell growth or viability, MTT	–	25 µM, 48 h	–	inhibition	50.9%
CC12CCCC(NS(=O)(=O)c3cccs3)(C1)C1CC(C)(C)C1CC2 (stereo not drawn)	HT-29	cell growth or viability, CCK-8	–	10 µM	–	inhibition	< 50%

Compound	tested on	assay	test system	setting	scale	endpoint	value
NC(=O)c1ccc(-c2ccccc2Cl)c2c3c([nH]c12)CC[C@H](N)C3	Pfeiffer	cell growth or viability	–	–	–	IC50	6.26 nM
CC12CCCC(NS(=O)(=O)c3ccc(C#N)cc3)(C1)C1CC(C)(C)C1CC2 (stereo not drawn)	HT-29	cell growth or viability, CCK-8	–	50 µM	–	inhibition	83.8%
COc1cc(N2CCN(C(=O)CN)CC2)ccc1Nc1ncc(Cl)c(Nc2ccccc2P(C)(C)=O)n1	NCI-H3122	CCK-8	–	250 nM, 48 h	–	viability	27%
COc1ccc(C2CC(=O)c3c(cc(O)c(CC=C(C)C)c3O)O2)cc1 (stereo not drawn)	HeLa	cell growth or viability, MTT	–	0.781 µM, 48 h	–	inhibition	4.73%
CN1CCCNC(=O)c2cccc(c2)C(=O)NCCCN(C)CCCNc2cccc3c2C(=O)c2cccc(c2C3=O)NCCC1	SAS	RNA-Seq, item: TRMT11 mRNA	–	1 µM, 6 h	reference: untreated cells	log2 fold change	-0.935
CC12CCCC(NS(=O)(=O)c3cccc(N)c3)(C1)C1CC(C)(C)C1CC2 (stereo not drawn)	HT-29	cell growth or viability, CCK-8	–	50 µM	–	inhibition	98.3%
Cc1ncsc1-c1ccc(C(C)NC(=O)C2CC(O)CN2C(=O)C(NC(=O)CCCCCCCCCCN2CCCC(Nc3ncc(Cl)c(Nc4ccccc4S(=O)(=O)C(C)C)n3)C2)C(C)(C)C)cc1 (stereo not drawn)	22Rv1	RNA-seq, item: SIK2 mRNA	–	concentration not given	reference: DMSO	log2 fold change	-1.27
CC(=O)N1C[C@H](O)C[C@H]1C(=O)N[C@H](C(=O)N[C@@H](CO)C(=O)N[C@@H](CC(=O)O)C(=O)COC(=O)c1c(C)cccc1C)C(C)C	THP-1 cells, LPS-primed	pyroptosis, LDH release	–	25 µM, LPS 1 µg/mL, 4 h, together with: nigericin 5 µM, 2 h	–	cell lysis	56.3%
CCOC(=O)c1cn(C23CCCC(C)(CCC4C2CC4(C)C)C3)nn1 (stereo not drawn)	HT-29	cell growth or viability, CCK-8	–	50 µM	–	inhibition	89.9%
COc1ccccc1CNC[C@@](O)(COCc1ccccc1)[C@@H]1CC[C@@H](C)C[C@H]1OCc1ccccc1	A2780	cell growth or viability, MTT	–	30 µM, 72 h	–	inhibition	99.1%
CCN(CC)CC(=O)Nc1cccc(-n2cc(-c3ccc4ccc(-c5cn(-c6cccc(NC(=O)CN(CC)CC)c6)nn5)cc4c3)nn2)c1	RCC4	PCR angiogenesis array, item: KDR	–	5 x IC50, 6 h, normoxia	reference: untreated	fold regulation	1.18
O=S(=O)(N[C@H]1CCO[C@@H](C2c3ccccc3CCc3ccccc32)C1)c1ccc(OC(F)(F)F)cc1	D425	immunoblot, item: CCR2	–	concentration not given	–	protein level	decreased
C[C@@H]1CC[C@@H]([C@@](O)(CNCc2ccc(F)cc2)COCc2ccc(F)cc2)[C@H](OCc2ccc(F)cc2)C1	A2780	cell growth or viability, MTT	–	10 µM, 72 h	–	inhibition	94.2%
CC(=O)N[C@@H](CO)C(=O)N[C@H](C(=O)N1CCC[C@H]1C(=O)N[C@@H](CC(=O)O)C(=O)COC(=O)c1c(C)cccc1C)C(C)(C)C	THP-1 cells, LPS-primed	pyroptosis, LDH release	–	25 µM, LPS 1 µg/mL, 4 h, together with: nigericin 5 µM, 2 h	–	cell lysis	44.6%
O=S(=O)(N[C@H]1CCO[C@@H](C2c3ccc(F)cc3CCc3cc(F)ccc32)C1)c1ccc(OC(F)(F)F)cc1	D425	immunoblot, item: AKT	–	concentration not given	–	phosphorylation level	decreased
CCC(=CCc1c(O)cc2c(c1O)C(=O)CC(c1cc(O)ccc1OC)O2)CC (stereo not drawn)	HeLa	cell growth or viability, MTT	–	1.563 µM, 48 h	–	inhibition	-0.661%
CCCC[C@H](NC(C)=O)C(=O)N[C@@H](CCC(=O)O)C(=O)N[C@@H](CO)C(=O)N[C@@H](CC(=O)O)C(=O)COC(=O)c1c(C)cccc1C	THP-1 cells expressing FKBP-caspase-4	pyroptosis, inhibitor	–	concentration not given, together with: B/B dimerizer	–	LDH release	53% and 55.6% and 59.2%
Cn1ncc2cc(-c3cncc(Cl)c3N3CCC4(CCNC4=O)CC3)ccc21	LS174T	gene expression, microarray, item: GSDMA mRNA	–	concentration not given, 24 h	reference: untreated cells	log2 fold change	-2.74
C=CC(=O)N1CCCC(n2c(=O)c3ncccc3n(Cc3ccc(Oc4ccccc4)cc3)c2=O)C1 (stereo not drawn)	OCI-LY19	annexin V/PI flow cytometry	–	100 nM, 72 h, Q1 quadrant	–	annexin V/PI cells	0.36%
CC(C)Cc1ccc(C(C)C(=O)[Se]CC(=O)Nc2cccc(C(F)(F)F)c2)cc1 (stereo not drawn)	NCI60 leukemia subpanel	cell growth	–	10 µM, 48 h, one-dose	–	mean growth percent	-67.4%
O=S(=O)(Nc1ccc(OC(F)(F)F)cc1)N1CCCC(C2c3ccccc3CCc3ccccc32)C1 (stereo not drawn)	D341	immunoblot, item: CIP2A	–	concentration not given	–	protein level	decreased
CN1CCC(c2ccc(-c3ccc([C@H]4[C@@H](F)[C@@H](F)C[C@@H](F)[C@H]4F)cc3)cn2)CC1	–	liver microsome stability	cynomolgus liver microsomes	1 µM	–	hepatic clearance	18 mL/min/kg
C[C@@H]1CC[C@@H]([C@](O)(CNCc2cccc(F)c2)COCc2ccccc2)[C@H](OCc2ccccc2)C1	A2780	cell growth or viability, MTT	–	30 µM, 72 h	–	inhibition	95.4%
CNS(=O)(=O)Nc1nccc(Cc2c(C)c3ccc(Oc4ncccc4F)cc3oc2=O)c1F	MOLM16	cell viability	–	7 days	–	IC50	> 1000 nM

Some of these lines once more:
Compound	tested on	assay	test system	setting	scale	endpoint	value
CC12CCCC(NS(=O)(=O)c3cccc(N)c3)(C1)C1CC(C)(C)C1CC2 (stereo not drawn)	HT-29	cell growth or viability, CCK-8	–	50 µM	–	inhibition	98.3%
CCCC[C@H](NC(C)=O)C(=O)N[C@@H](CCC(=O)O)C(=O)N[C@@H](CO)C(=O)N[C@@H](CC(=O)O)C(=O)COC(=O)c1c(C)cccc1C	THP-1 cells expressing FKBP-caspase-4	pyroptosis, inhibitor	–	concentration not given, together with: B/B dimerizer	–	LDH release	53% and 55.6% and 59.2%
C[C@@H]1CC[C@@H]([C@](O)(CNCc2cccc(F)c2)COCc2ccccc2)[C@H](OCc2ccccc2)C1	A2780	cell growth or viability, MTT	–	30 µM, 72 h	–	inhibition	95.4%
CC(=O)N1C[C@H](O)C[C@H]1C(=O)N[C@H](C(=O)N[C@@H](CO)C(=O)N[C@@H](CC(=O)O)C(=O)COC(=O)c1c(C)cccc1C)C(C)C	THP-1 cells, LPS-primed	pyroptosis, LDH release	–	25 µM, LPS 1 µg/mL, 4 h, together with: nigericin 5 µM, 2 h	–	cell lysis	56.3%
